Measurements of several laboratories.
Lines come from different studies, so protocols differ. “And” joins repeats or separate records; there may be more than shown.
Target: Mitogen-activated protein kinase kinase kinase 5 (MAP3K5, Homo sapiens, UniProt Q99683)

`CC(C)=CC1OC(C)(C)C2C=C3C(=O)C(Cl)=CC(O)C3C3C(O)C4OC4C(=O)C132` (centres unmarked) has a remaining binding of 100% (cell-free assay, competition with immobilised ligand; 10 µM).
The remaining binding of `CNC(=O)C1CCN(c2cc(C)c(F)cc2NC(=O)c2ccc(-c3cc(O)ccc3C)c(C)c2)CC1` is reported as 95% (binding, competition with immobilised ligand; 1 µM).
With `CNC1C[S+]2CC[S+]3CC[S+](C1)[Ru-4]321([N]=C=S)[n]2c3ccc(OC)cc3c3c4c(c5cc(F)c[n+]1c5c32)C(=O)NC4=O` (centres unmarked) the remaining binding was 100% (KinomeScan; 0.1 µM; relative to: untreated).
`Cc1cnc2nc1Nc1cccc(c1)COC/C=C/COCc1cc(ccc1OCCN1CCOCC1)N2` gave a remaining binding of 100% (binding, competition with immobilised ligand; 0.1 µM).
`CCn1cc(C(=O)O)c(=O)c2c(N)c(F)c(NC3CCCCC3)cc21` has an inhibition of 15% (kinase activity; 0.1 µM, with: ATP at Km).
The remaining binding of `COc1c(Cl)cccc1Nc1c(-c2ccncc2C#C[C@@]2(C)CCCN2C(=O)/C=C/CN(C)C)[nH]c2c1C(=O)NCC2` is reported as 100% (binding, competition with immobilised ligand; 3 µM).
`COc1cc(Nc2nccc(-c3cnn4nc(OC)ccc34)n2)cc(C(F)(F)F)c1` gave a remaining binding of 100% (binding, competition with immobilised ligand; 1 µM).
`COc1ccc(NC(=O)Nc2ccc3c(c2)C(=O)N(C(C)CO)CC(C)C(CN(C)Cc2ccc4c(c2)OCO4)O3)cc1` (centres unmarked) has a remaining activity of 109% (kinase activity, KinaseProfiler; 0.03 µM, species human; relative to: control).
With `NC(=O)C[C@H]1CCc2sc3ncnc(O[C@H]4CC[C@H](N5CCOCC5)CC4)c3c21` the inhibition was 4% (enzyme activity, inhibitor; 10 µM).
With `CN1CCN(Cc2ccc(-c3ccc(CO[C@H]4CCC[C@@H]4NC(=O)c4cc(-c5cnn(C)c5)cnc4N)cc3)cc2)CC1` the inhibition was -4% (enzyme activity, inhibitor; 0.1 µM).
`O=C(Nc1ccc(Oc2ncnc3[nH]cc(-c4ccccc4)c23)c(F)c1)c1c2n(n(-c3cc(F)ccc3F)c1=O)CCCC2` has an inhibition of -11% (enzyme activity, inhibitor; 0.5 µM).
`CNC(=O)C[C@H](Cc1ccc(C#N)cc1)NC(=O)c1cc(-c2ccc(CN[C@H](C)c3ccc(C)cc3)o2)ccc1Cl` — result for “activity vs control”: 101% (enzyme activity, inhibitor; 1 µM).
With `O=C(O)CCC(=O)c1cccc(NS(=O)(=O)c2c[nH]c3ncccc23)c1` the remaining activity was 91% (kinase activity, radiometric; 10 µM).
`N[C@H]1CC[C@H](Nc2nccc(-c3cccnc3Oc3ccc(NC(=O)NC4CC4)c4ccccc34)n2)CC1` — result for “log2 LFQ intensity”: 19.6 and 18.8 and 20 and 19.3 (kinobead competition pulldown; HEK293/HCT116 lysate mixture; 10 µM, 1 h, 4 °C; lower = stronger competition).
